Measurements of several laboratories.
Parts stem from different laboratories: compare values within a part only.

Series 1
Target: Ras GTPase-activating protein-binding protein 1, full length (G3BP1, Homo sapiens, UniProt Q13283)
Sequence of UniProt Q13283 (whole entry, looked up): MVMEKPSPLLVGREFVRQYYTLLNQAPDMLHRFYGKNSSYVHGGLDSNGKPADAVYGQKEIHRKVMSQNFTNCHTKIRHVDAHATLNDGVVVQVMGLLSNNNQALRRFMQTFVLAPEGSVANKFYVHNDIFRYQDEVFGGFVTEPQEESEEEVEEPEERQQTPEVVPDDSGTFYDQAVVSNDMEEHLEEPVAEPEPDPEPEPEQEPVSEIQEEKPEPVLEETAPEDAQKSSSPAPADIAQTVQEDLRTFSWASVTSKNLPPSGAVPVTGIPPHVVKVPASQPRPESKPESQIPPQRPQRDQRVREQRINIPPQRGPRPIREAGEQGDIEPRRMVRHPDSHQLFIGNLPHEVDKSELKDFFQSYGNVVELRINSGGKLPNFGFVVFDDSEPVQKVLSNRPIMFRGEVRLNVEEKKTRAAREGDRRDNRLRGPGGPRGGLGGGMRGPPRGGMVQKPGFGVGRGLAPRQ
Method: RNA Bind-n-Seq
Form: RNA
Sample: in vitro
Concentration: 200 nM
Setting: whole 134-nt RNA, ends assumed
Added: 150 mM KCl
Reference: input library
Reading: higher = stronger binding
Constant ends, left off below: GGGAGUUCUACAGUCCGACGAUC … UGGAAUUCUCGGGUGUCAAGG
Oligonucleotide | log2 enrichment
UGGGAGGUGGAUUUUGUUUAUUUUUUUAGCUCAUUUCCAGGGGUGGGAAUUCUUUUUUAAUAUGUGUCAUGAAUAAAGUUGUUUUUGAAA | 0.0101
UUUUAAAGUGUUCUCCACCACACUUGGGCAUUUAUCUGUUUCUUUAAAUGGCCUUCUCUGUUUCUUGUUUGCAGGCAGCUAUCAAUGGUG | 0.162
ACCAUGCAGGUGGGCAUCUUUGGGAAGUGGGGCAAGGGGGGGAUAGGGAGGGGGGUAACACCUUGGGAACAGGUGGUCCCAGGUCGUUUC | 1.11
GUCCUGUGCUACACAUCGUAUGUACCGAAUCGGAAAAAGGGGAAAAAGGGGAAAAAGGAAAGUAUUAUGUUACGCCGUUCGGAUCUGCAC | -0.429
CCUCAAGUCCUGUGCUACACAUCGUAUGUACCGAAUCGGAGGUUUUUGGUGGAAAGUAUUAUGUUACGCCGUUCGGAUCUGCACUUCCAG | -0.138
UCCAGUCUAGCUUUGGAGAAGCGCCAACCUGCUCACUGCCGCCGACCAGACUGCAUGUUUGGUUGUACUUGUUUGAAAAGAAAAGUUGUA | -1.11
GCACGAAGUAAAAACAAAUGGAAAUGCUUCGGAUAGUGGCAGGGGUGGGGGUUGCUAAGGAAAGGGUGGGAUGGGAGUGGGUAAAGAGUU | 0.945

Series 2
Target: Interferon regulatory factor 7, full length, phosphomimetic (IRF7, Homo sapiens, UniProt Q92985, residues 1-503, S101K/S471D/S472D/S475D/S476D/S477D/S483D/S484D/S487D)
Method: protein-binding microarray
Form: double-stranded DNA, one strand shown
Sample: in vitro
Concentration: 250 nM
Setting: 60-bp whole probe
Added: salmon DNA 0.4 mg/ml
Reference: random background probes
Reading: higher = stronger binding
Constant ends, left off below: GCCTAGCAC … GTCTTGATTCGCTTGACGCTGCTG
Construct (chain): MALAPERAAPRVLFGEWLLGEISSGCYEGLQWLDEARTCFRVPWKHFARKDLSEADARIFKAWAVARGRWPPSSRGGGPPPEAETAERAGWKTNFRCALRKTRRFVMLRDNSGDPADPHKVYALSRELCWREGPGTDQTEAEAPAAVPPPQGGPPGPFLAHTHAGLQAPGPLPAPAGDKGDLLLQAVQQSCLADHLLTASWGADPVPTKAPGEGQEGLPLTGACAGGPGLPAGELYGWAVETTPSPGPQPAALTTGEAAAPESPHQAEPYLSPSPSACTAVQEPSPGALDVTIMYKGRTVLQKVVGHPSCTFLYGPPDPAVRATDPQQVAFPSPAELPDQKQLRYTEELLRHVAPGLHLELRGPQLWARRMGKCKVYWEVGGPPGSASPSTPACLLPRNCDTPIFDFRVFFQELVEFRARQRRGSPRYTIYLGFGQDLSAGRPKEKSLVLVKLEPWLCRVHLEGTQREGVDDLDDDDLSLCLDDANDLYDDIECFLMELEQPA
Oligonucleotide | log fluorescence [z-score]
GACGGGCTGCTTCTCCTGACGTGCTAG | -0.96
TCAGTTCTTATCCTTCCCACTGTGCTA | 0.925
GACGGTTTCGGGACTGGCGACGTGCTA | 4.03
GACGATTTCAGACTAGAGACGTGCTAG | 0.32
TTAGATATCGGGCTTCGATTAGTGCTA | 0.0984
TCACATTTTGGTTTTCAACTGTGCTAG | 0.979

Series 3
Target: Histone acetyltransferase KAT6A, winged helix 2, GST fusion (KAT6A, Homo sapiens, UniProt Q92794, residues 85-181)
Method: protein binding microarray
Form: double-stranded DNA, one strand shown
Sample: in vitro
Concentration: not given
Setting: 8-mer, flanks averaged, mean of 2 arrays, mostly near background
Reference: not given
Reading: higher = stronger binding
Target sequence (chain): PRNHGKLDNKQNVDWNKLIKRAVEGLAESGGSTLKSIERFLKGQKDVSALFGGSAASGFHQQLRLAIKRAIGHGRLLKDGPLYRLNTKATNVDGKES
Oligonucleotide | E-score
CAGCGCGA | 0.0317
GCCCAAAC | 0.173
ACAGAATC | -0.0599
TCTTTCCA | -0.143
GGAGATCC | 0.00251
GGGAGTGA | 0.115
CCGTAAGG | -0.0742
GAGCATAA | 0.049

Other studies, line by line
Molecule | target | assay | test system | conditions | scale | endpoint | result
PhoQ, residues 284 288 289 292 302 303 ASVMEA | PhoP, residues 12 14 15 18 19 TQAIL (Escherichia coli, UniProt P23836) | Sort-seq, measured: YFP reporter | E. coli | PhoQ-PhoP variant library, added: 10 µM Mg2+ | reference: high Mg2+ state, higher = stronger signaling | fold induction | 3.32
